# Measured values pooled from the literature.
# Each line is one published result; not all experiments were run side by side. ± gives the spread as reported.
# SULT2A1: Sulfotransferase 2A1 (SULT2A1, Homo sapiens, UniProt Q06520)
# UniProt Q06520, sequence (whole entry, looked up): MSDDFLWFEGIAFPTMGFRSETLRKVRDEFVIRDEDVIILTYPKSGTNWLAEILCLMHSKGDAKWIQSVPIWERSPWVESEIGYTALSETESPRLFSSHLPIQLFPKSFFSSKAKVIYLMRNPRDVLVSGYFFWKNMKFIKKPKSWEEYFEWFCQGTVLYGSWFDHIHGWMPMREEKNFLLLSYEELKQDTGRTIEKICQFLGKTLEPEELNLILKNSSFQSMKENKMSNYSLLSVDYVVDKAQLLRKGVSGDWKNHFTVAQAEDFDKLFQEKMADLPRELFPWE
# UGT1A9: UDP-glucuronosyltransferase 1A9 (UGT1A9, Homo sapiens, UniProt O60656)
# UniProt O60656, sequence (whole entry, looked up): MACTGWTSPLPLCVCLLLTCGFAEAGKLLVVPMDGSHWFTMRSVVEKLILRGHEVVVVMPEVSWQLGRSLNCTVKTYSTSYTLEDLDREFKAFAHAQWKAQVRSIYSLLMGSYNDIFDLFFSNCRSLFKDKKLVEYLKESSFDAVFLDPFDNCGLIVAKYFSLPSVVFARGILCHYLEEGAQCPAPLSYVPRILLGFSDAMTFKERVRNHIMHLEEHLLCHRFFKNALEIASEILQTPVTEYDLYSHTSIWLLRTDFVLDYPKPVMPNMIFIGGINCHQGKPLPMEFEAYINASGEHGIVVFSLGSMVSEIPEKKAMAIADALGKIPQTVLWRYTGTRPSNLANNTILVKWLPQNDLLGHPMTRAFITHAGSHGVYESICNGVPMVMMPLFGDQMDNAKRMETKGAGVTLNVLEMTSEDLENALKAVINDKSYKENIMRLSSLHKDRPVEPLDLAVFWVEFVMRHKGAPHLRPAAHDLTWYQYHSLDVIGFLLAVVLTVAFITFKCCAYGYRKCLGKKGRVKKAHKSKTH
# UniProt Q86YT5, sequence (whole entry, looked up): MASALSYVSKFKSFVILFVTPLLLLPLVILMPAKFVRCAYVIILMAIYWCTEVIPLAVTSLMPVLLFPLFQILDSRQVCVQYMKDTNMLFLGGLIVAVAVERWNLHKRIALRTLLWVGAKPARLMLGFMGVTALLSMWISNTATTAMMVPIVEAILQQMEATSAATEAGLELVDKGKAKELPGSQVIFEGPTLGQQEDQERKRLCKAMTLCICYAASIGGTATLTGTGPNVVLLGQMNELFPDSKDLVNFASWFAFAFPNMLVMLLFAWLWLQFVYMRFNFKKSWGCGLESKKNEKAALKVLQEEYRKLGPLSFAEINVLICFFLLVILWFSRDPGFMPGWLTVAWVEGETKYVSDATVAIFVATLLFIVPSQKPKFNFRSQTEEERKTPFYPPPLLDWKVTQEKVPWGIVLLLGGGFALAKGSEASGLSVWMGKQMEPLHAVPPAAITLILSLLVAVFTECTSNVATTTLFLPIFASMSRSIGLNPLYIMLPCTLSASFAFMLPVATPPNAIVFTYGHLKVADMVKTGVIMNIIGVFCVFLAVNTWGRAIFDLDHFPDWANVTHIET
# UniProt P52792, sequence (whole entry, looked up): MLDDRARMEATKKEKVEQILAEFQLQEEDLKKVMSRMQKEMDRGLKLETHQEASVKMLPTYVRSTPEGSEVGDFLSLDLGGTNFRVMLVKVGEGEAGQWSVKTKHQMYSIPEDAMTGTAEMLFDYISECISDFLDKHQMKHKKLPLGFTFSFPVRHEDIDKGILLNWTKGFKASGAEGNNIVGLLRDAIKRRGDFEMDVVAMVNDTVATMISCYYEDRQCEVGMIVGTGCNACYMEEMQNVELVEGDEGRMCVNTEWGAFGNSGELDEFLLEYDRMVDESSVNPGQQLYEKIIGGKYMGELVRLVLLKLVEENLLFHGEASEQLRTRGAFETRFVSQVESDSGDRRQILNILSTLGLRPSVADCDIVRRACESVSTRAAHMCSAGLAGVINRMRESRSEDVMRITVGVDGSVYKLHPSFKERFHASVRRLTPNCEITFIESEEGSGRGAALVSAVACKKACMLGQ
# UniProt P04191, sequence (whole entry, looked up): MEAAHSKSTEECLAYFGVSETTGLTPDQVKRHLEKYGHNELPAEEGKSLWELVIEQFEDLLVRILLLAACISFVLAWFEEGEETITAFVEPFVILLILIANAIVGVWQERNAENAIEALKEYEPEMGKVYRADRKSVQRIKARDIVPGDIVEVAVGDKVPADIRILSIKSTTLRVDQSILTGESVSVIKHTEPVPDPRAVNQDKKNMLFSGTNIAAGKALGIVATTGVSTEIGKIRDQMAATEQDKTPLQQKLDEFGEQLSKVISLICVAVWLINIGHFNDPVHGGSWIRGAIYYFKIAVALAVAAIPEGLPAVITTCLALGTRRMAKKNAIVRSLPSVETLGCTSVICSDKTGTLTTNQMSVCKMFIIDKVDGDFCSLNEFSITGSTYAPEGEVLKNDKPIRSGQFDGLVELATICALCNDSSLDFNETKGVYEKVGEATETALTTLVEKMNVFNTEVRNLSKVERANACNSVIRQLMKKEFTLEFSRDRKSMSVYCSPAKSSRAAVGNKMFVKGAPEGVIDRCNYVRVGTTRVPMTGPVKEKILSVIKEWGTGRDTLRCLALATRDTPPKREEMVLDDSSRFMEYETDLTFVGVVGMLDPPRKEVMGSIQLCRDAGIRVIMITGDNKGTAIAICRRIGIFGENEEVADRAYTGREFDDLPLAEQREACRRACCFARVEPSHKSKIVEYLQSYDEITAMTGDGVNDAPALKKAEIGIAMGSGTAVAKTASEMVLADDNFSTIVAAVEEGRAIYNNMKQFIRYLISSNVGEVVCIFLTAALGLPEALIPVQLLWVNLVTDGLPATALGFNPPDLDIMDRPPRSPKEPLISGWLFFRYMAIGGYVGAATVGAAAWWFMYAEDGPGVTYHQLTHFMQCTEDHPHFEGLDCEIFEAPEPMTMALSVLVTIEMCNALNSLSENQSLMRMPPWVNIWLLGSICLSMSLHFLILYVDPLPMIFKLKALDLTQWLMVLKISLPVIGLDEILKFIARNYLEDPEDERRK
Compound,target,assay,test system,conditions,how to read,Vmax
Oc1ccc(-c2ccc(Cl)c(Cl)c2)c(Cl)c1,SULT2A1,"substrate, HPLC of PAP formation",,"substrate inhibition fit, together with: PAPS 200 µM",,21 ± 7.4 nmol/min/mg
CCOC(=O)CC1C(C(=O)OCC)=C(N)Oc2ccc(-c3cc(OC)cc(OC)c3)cc21 (stereo not drawn),"ATP2A1 (Oryctolagus cuniculus, UniProt P04191)",Ca2+-dependent ATPase activity,rabbit SR vesicles,"10 µM, unit not given, together with: varied Ca2+",relative to: control,0.8 ± 0.04
O=c1c(O)c(-c2ccccc2)oc2ccc(O)cc12,UGT1A9,substrate,,"pH 7.4, 37 °C",,13 nmol/min/mg
CS(=O)(=O)c1ccc([C@@H](CC2CCCC2)C(=O)Nc2nccs2)cc1,"Hexokinase-4 (Mus musculus, UniProt P52792)",activator,,"3 µM, pH 7.4, 37 °C, with or without BAD SAHB, together with: glucose 0 to 50 mM, ATP 5 mM",relative to: vehicle,138 ± 6.15%
Cc1cc(O)cc2oc(-c3ccccc3)cc(=O)c12,UGT1A9,substrate,,"pH 7.4, 37 °C",,5.37 nmol/min/mg
Oc1ccc(-c2ccc(Cl)cc2Cl)cc1Cl,SULT2A1,"substrate, HPLC of PAP formation",,"substrate inhibition fit, together with: PAPS 200 µM",,8.5 ± 0.5 nmol/min/mg
CCCCc1ccc(O)cc1,UGT1A9,substrate,,"pH 7.4, 37 °C",,0.647 nmol/min/mg
O=C(NCc1ccc(F)cc1)C1CCN(S(=O)(=O)c2cc(Cl)cc(Cl)c2)CC1,"Na(+)/citrate cotransporter (Homo sapiens, UniProt Q86YT5)",inhibitor,HepG2,"0.3 µM, 30 min, preincubated then washed, together with: citrate",,22 ± 3 nmol/mg protein/30 min
Oc1c(Cl)cc(-c2ccccc2Cl)cc1Cl,SULT2A1,"substrate, HPLC of PAP formation",,"substrate inhibition fit, together with: PAPS 200 µM",,57.1 ± 11.4 nmol/min/mg

# For quick reference, copied from above:
Compound,target,assay,test system,conditions,how to read,Vmax
O=c1c(O)c(-c2ccccc2)oc2ccc(O)cc12,UGT1A9,substrate,,"pH 7.4, 37 °C",,13 nmol/min/mg
